Assay results gathered from unrelated publications.
Every numbered part comes from another study and shows a few of its results, in no order.

Study 1
Target: Ras GTPase-activating protein-binding protein 1, RRM domain (G3BP1, Homo sapiens, UniProt Q13283)
UniProt Q13283, sequence (whole entry, looked up): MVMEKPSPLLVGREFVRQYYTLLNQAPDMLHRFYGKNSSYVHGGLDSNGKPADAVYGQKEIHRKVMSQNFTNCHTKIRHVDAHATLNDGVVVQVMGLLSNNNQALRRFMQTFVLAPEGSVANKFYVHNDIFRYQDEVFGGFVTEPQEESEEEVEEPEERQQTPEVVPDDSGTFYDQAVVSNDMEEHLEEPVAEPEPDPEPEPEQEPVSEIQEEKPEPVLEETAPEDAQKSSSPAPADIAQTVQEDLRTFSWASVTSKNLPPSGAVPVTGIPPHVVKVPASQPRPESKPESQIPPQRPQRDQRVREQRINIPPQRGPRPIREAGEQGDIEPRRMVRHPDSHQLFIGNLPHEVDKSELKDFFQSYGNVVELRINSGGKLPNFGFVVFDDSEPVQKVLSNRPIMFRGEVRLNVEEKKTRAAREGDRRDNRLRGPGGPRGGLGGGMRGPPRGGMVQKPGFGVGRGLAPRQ
Technique: RNA Bind-n-Seq
Molecule type: RNA
Medium: in vitro
Tested at: 1 µM
Notes: whole 134-nt RNA, ends assumed
With: 150 mM KCl
Relative to: input library
Reading: higher = stronger binding
Constant ends, left off below: GGGAGUUCUACAGUCCGACGAUC … UGGAAUUCUCGGGUGUCAAGG
Strand | log2 enrichment
CACAGACAACACGCACCCACACAGACACAGAGGGAAGGGGUUGGGAUGGGGACAGGGUGCAUAGCAGGGCGGGGUAGGACCCCAGCCCCU | 0.115
CAAGUCCUGUGCUACACAUCGUAUGUACCGAAUCGGGAAAGGGUUUGGGUUUGGGAAAGUAUUAUGUUACGCCGUUCGGAUCUGCACUUC | 0.774
AAGUCCUGUGCUACACAUCGUAUGUACCGAAUCGGGGCCCCGGGCCCCGGGCCCCGGAAAGUAUUAUGUUACGCCGUUCGGAUCUGCACU | -1.03
CUCAAGUCCUGUGCUACACAUCGUAUGUACCGAAUCGGUUGGGGUUGGGUUGGGAAAGUAUUAUGUUACGCCGUUCGGAUCUGCACUUCC | 0.45
UGGGAGGUGGAUUUUGUUUAUUUUUUUAGCUCAUUUCCAGGUGUGGGAAUUUUUUUUUAAUAUGUGUCAUGAAUAAAGUUGUUUUUGAAA | 2.19
CAAGUCCUGUGCUACACAUCGUAUGUACCGAAUCGGCCCCGGGCCCCGGCCCCGGAAAGUAUUAUGUUACGCCGUUCGGAUCUGCACUUC | -1.2
ACCAUGCAGGUGGGCAUCUUUGGGAAGUGGGGCAAGGGGGGGAUAGGGAGGGGGGUAACACUUUGGGAACAGGUGGUCCCAGGUCGUAAA | -0.532
UCCUGUGCUACACAUCGUAUGUACCGAAUCGGGUUUGGGUUUUUUUGGGAAAAAAAGGGAAAGUAUUAUGUUACGCCGUUCGGAUCUGCA | 0.0308

Study 2
Target: Histone acetyltransferase KAT6A, winged helix 1, GST fusion (KAT6A, Homo sapiens, UniProt Q92794, residues 1-85)
Technique: protein binding microarray
Molecule type: double-stranded DNA, one strand shown
Medium: in vitro
Tested at: not given
Notes: 8-mer, flanks averaged, mean of 2 arrays, mostly near background
Relative to: not given
Reading: higher = stronger binding
Residues (chain): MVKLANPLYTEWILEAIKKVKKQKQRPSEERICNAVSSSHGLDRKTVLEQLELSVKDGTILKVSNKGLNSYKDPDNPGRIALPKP
Strand | E-score
GACATTAA | -0.0373
GTAACTTA | -0.139
ATCTCTTC | -0.137
CGAGCCGC | 0.385
CTGCCACA | -0.129
AGTATCAC | -0.141
AAATTTTC | -0.267
ATTACGGG | 0.27
GGGATTAC | 0.0287
CCTTTGAC | -0.169
TAAAATGA | -0.223
AGCTTGTG | -0.224

Study 3
Target: RING finger protein unkempt homolog, zinc fingers 1-6, SBP tag (UNK, Homo sapiens, UniProt Q9C0B0, residues 30-357)
UniProt Q9C0B0, sequence (30-357, looked up): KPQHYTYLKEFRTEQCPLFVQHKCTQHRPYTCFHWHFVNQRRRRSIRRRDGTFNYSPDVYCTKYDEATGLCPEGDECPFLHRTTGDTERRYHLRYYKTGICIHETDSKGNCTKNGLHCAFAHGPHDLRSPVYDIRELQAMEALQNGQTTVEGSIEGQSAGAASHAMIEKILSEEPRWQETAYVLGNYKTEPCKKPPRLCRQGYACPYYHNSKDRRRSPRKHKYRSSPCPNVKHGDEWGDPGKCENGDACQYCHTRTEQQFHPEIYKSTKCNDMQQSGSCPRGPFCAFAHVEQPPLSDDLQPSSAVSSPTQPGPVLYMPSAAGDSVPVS
Technique: RNA Bind-n-Seq
Molecule type: RNA
Medium: in vitro
Tested at: 100 nM
Notes: RNA with constant flanks, vertebrate orthologous sites, ends assumed
Relative to: input RNA pool
Reading: higher = stronger binding
Constant ends, left off below: GGGAGUUCUACAGUCCGACGAUC … CAACAGAGGAUUGAGCAUCA
Strand | bound/input enrichment [ratio]
UGCCGGGCUGGCCCCAGUCCCACCUCUGUUUAUUCUGUACUGCAACCUGUAAAUAACAUUUAGCAUUCCUAUUGUAACAAAAUUAAUUUUUAUGAAAUAAAUUAUAUUUCCUAGUCUAAU | 1.1
AUCCCUCAGUGACAGUAUGCCUUCUGUAGCAGAUUCCCACUCUAGUCAUUUUUCUGAAUUUAGUUGUUCUGACCUAGAAAGCAUGAAAACUUCUUGUAGUCAUGGUUCCACUGAUUAUCA | 2.8
UUCCUUAUUUCUUUCUUCCUGACUUUUUUUCUUUCGUUUCUUUUUUCUUUUUUUUUUUGGUAGUUGUUGUUACCCACGCCAUUUUACGUCUCCUUCACUGAAGGGCUAGAGUUUUAACUU | 2.46
AAUUGAACAAACACGUUUCCACUGGGUUUUGCCUGUAAGAAAAAAAUGUACCCGAGCACAUAGAGCUUUUUAAUAGCACUAACCAAUGCCUUUUUAGAUGUAUUUUUGAUGUAUAUAUCU | 0.626
UUCCAGCACAACUGACUGGACCCCGGCAUUCUUUGCAUGGUUACCUGUCAAACACAAGUCUAGUUAAUUUUCAGGAAACAACCAGGCAGCCAUCUUUAUCUUGUAGCCCGGCUGGAGAUU | 0.296
CCUACAAUAAUGAAGCCCGACAGGAAUUUUUUUAUUUUCCAUUUCCCCUCUAGGCAUCCUUCGUCUCUUUUCCCCAGGGGCAUCACUCAGAGCGUGCGUGCGUGCGUGUGCACAUGUUUC | 0.316
CUCCCUGAGCGACAGCGUGCCCUCGGUGGCGGACUCGCACUCGAGCCACUUCUCCGAGUUCAGCUGCUCCGACCUGGAGAGCAUGAAGACCUCCUGCAGCCACGGGUCCAGCGACUACCA | 0.454
CAGUUUAGAUAUUCUUUUAAUUUUUUUUCUUUUCCCUUAAUCCUUUUUUAUUUUUAAAAAUAGUUCUUUUGUAAUGUGUUCAAAAUGGAAUUGAAAACUGGCACCUCUCUUGCAAACAUC | 8.31
UCCCAGCACACUGAUAAAAACUGUGGACUGGUUGCUUGUAUUUUCCUUAUUUUUUUUAAUCAGUUUUAUUAUGUAUGCUACCAUUCGAACUGAGAGCAUUCGGUGGUUGAUUCCAGGACA | 0.696
AGGCUUAGAAAUUGGAGUGGAACCAGAAUCUAGCCCAAGUAAAACAAACAUGAAAUGACCAAAUGAUCACCACACCCAGUACAGCUGCCACUCAGGGUAGAUGCAAAAUAAAGUCAGAAC | 0.411

Further values, each from its own experiment
Substance | target | assay | system | conditions | scale | endpoint | result
PhoQ, residues 284 288 289 292 302 303 TYGVAM | PhoP, residues 12 14 15 18 19 VQALL (Escherichia coli, UniProt P23836) | Sort-seq, refers to: YFP reporter | E. coli | PhoQ-PhoP variant library, with: 10 µM Mg2+ | relative to: high Mg2+ state, higher = stronger signaling | fold induction | 7.89

Some of these lines once more (study 1):
Strand | log2 enrichment
AAGUCCUGUGCUACACAUCGUAUGUACCGAAUCGGGGCCCCGGGCCCCGGGCCCCGGAAAGUAUUAUGUUACGCCGUUCGGAUCUGCACU | -1.03
CUCAAGUCCUGUGCUACACAUCGUAUGUACCGAAUCGGUUGGGGUUGGGUUGGGAAAGUAUUAUGUUACGCCGUUCGGAUCUGCACUUCC | 0.45
CAAGUCCUGUGCUACACAUCGUAUGUACCGAAUCGGGAAAGGGUUUGGGUUUGGGAAAGUAUUAUGUUACGCCGUUCGGAUCUGCACUUC | 0.774
ACCAUGCAGGUGGGCAUCUUUGGGAAGUGGGGCAAGGGGGGGAUAGGGAGGGGGGUAACACUUUGGGAACAGGUGGUCCCAGGUCGUAAA | -0.532
